Measurements pooled from the literature.
Each numbered part is a random draw from the data of one study; scales do not carry over between parts. Changes are numbered by the printed parent chain.

Set 1
Target: Histone acetyltransferase KAT6A, winged helix 2, GST fusion (KAT6A, Homo sapiens, UniProt Q92794, residues 85-181)
Method: protein binding microarray
Form: double-stranded DNA, one strand shown
Matrix: in vitro
Tested at: not given
Setting: 8-mer, flanks averaged, mean of 2 arrays, mostly near background
Baseline: not given
Direction: higher = stronger binding
Construct (chain): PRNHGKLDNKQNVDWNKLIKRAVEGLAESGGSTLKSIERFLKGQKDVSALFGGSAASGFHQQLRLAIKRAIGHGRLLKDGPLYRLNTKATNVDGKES
Strand	E-score
ACGGGGTA	-0.132
GATTTAAA	-0.0788
ACTTGTGA	-0.113
GCGCGCAA	0.17
TATTGAGA	0.0882
CGCGGCTA	0.122
CGAGAGCG	0.018
CATTCTGG	-0.0751
GCATGCGA	0.0207
GGAGTATA	-0.0887
AATTGGTG	-0.0837
CTCATGAG	0.0848
AGGGACGG	-0.0939
ACCTGTAG	-0.0756
GCTGGAAA	0.181
CCCGTTGA	0.0231
CACCGGGC	0.0683
GGGGGTAC	0.00217
AAACGTCC	-0.142
ACGGTTCG	-0.13
GAGGACTC	-0.221
CTTGGGAC	0.0466
AACGCCTC	-0.119
GGGATGCA	0.0422
CTTAACAA	-0.0413

Set 2
Target: Centromere-binding protein 1, full length, His-tagged (CBF1, Saccharomyces cerevisiae, UniProt P17106, residues 1-351)
UniProt P17106, sequence (whole entry, looked up): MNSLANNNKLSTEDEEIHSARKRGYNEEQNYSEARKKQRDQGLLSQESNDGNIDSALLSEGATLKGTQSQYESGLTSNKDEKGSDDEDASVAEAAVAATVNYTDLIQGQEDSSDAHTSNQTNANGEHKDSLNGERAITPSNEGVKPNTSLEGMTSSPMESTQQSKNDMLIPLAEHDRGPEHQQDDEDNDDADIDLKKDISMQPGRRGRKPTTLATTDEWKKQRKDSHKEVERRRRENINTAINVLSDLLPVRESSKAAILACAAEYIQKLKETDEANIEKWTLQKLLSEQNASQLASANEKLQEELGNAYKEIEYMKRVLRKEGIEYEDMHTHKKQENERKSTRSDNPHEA
Method: competition protein-binding microarray
Form: double-stranded DNA, one strand shown
Matrix: in vitro
Tested at: 2 µM
Setting: whole 60-bp probe, lowest competitor level
Together with: Pho4 competitor, 0.05 µM
Direction: higher = stronger binding
All sequences stand within: … GTCTTGATTCGCTTGACGCTGCTG
Strand	fluorescence intensity [a.u.]
AGATACATACATGAACATATGCACTTATAGCGCCCA	78
AGCCAACGTTACGACCACGATGCCTATGAACACCAT	87.3
TAAATAACCCTGAGCCACATGTGTAAGATGCCGTAG	81.5
TTTTATGCGATATTACATGTGTCAATAGCAAAAGGG	98.4
GCGTCCATGGGAGTGCTCCTGCAACGTACTTCATCT	55.7
CGGGGTTAAGTTTTTCACGTGATCTGCTTGCAGCAG	5340
CATCATTTGCCACTCCACATGACAATGTAAAAGCCA	254
CCGAAATTTGCTTCACACGTGTCTGTTGATAAGCAA	1480
CTTTCCCGATCTTGGTCCGTGGGTGTAGCACATTTG	62.3
CGTCTGCTAATGGCGGACGTGGTCGATGATGAAGAG	55
ATAAGTAAACTCTCACACATGCTAACTTCTGTTGGG	101
GTCTTGTCTCATTGGTGCGTGGGTGTCCCCACTTCA	87.2
AACCGTAGGATGTCCCACGTTCGACTTGAACTCGTT	69.6
AGCTTTGAAAACTCCCATGTGGCGCGCCCGTCTTAA	70.9
GCGGTGTCAAACGGTCTGGTGTGCCATCTAGAAGTT	59.4
CATATGTTTTAGCTGATTATAATTCTTCGATCGATG	137
CGGGGTTAAGTTTGTATAGTGGGTGGCTTGCAGCAG	67.9
AAATTACTAAGTTGTAGTGTGGGTGACGCCGTATGA	69.7
GCACTAGTCCAATAAGTCGTGCGATTCCAAAGTTCA	86.1

Set 3
Target: CCND2, cyclin fold, Cln2 fusion (human)
Method: yeast growth competition, sequencing
Matrix: yeast
Setting: weak parent motif
Baseline: not given
Direction: higher = stronger binding
Starting sequence: CDC6 docking peptide (human); TLKGRRLVFDNQL; partner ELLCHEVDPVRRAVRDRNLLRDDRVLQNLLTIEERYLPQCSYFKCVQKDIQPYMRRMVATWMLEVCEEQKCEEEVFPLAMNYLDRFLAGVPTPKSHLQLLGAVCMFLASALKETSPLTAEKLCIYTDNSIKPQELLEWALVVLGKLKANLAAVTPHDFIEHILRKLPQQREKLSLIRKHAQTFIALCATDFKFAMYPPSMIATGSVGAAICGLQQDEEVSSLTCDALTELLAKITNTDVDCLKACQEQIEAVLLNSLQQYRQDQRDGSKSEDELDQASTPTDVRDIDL
Change	normalised enrichment score
F9W	0.305
L13N	0.38
L7D	-0.175
L2K	0.369
V8S	0.274
R5P	0.366
Q12H	0.338
Q12S	-0.154
K3D	-0.162
F9K	0.597
G4H	0.182
G4K	0.303
N11S	0.166
N11T	-0.0945
F9V	-0.023
R6N	0.0452
D10G	-0.224
N11F	0.764

Set 4
Target: Interferon regulatory factor 5, full length, phosphomimetic (IRF5, Homo sapiens, UniProt Q13568-2, residues 1-514, K96S/S451D/S453D/S456D/S462D)
Method: protein-binding microarray
Form: double-stranded DNA, one strand shown
Matrix: in vitro
Tested at: 250 nM
Setting: 60-bp whole probe
Together with: salmon DNA 0.4 mg/ml
Baseline: random background probes
Direction: higher = stronger binding
All sequences stand within: GCCTAGCAC … GTCTTGATTCGCTTGACGCTGCTG
Strand	log fluorescence
GACGGACTGCGGTTTCGGGACGTGCTA	1.7 z-score
CTAGGACTGGACACTGGGTTAGTGCTA	-0.702 z-score
TTAGGTCACGGTCTCGGTTAGTGCTAG	0.117 z-score
TTAGACATCAGTCTCGATTAGTGCTAG	0.809 z-score
GACGGACTGGGGTGTCGGGACGTGCTA	-0.531 z-score
TTAGAACAGAGTCTCGATTAGTGCTAG	0.256 z-score
TCAACCCTCCCTCTGTAAGTGTGCTAG	-0.193 z-score
GACGGACTGCTACTGCGGACGTGCTAG	-0.723 z-score
GACGATTTTAGACTGGAGACGTGCTAG	-0.0621 z-score
CAGCATGCCTGTCCCTGGGTGTGCTAG	-0.516 z-score
GACGGTTTCGGTATCAGGACGTGCTAG	9.63 z-score
GTAGGTATCGGGACTGGGTTAGTGCTA	1.55 z-score
TTAGGACTGGGGTTTCGCTTAGTGCTA	1.91 z-score
GACGATTTCGGGACTGGAGATGTGCTA	1.9 z-score
CTCTTTTTGCTTTCTTTTATGTGCTAG	2.72 z-score
TCATTAATCACATATACAACTGTGCTA	1.06 z-score
GACGATGTCGGGTTTCGAGACGTGCTA	1.49 z-score
TTAGGTATCGGACTGGGTAAGTGCTAG	1.56 z-score
GACGGACTGTTTCTCCTGACGTGCTAG	0.819 z-score

A few entries again (set 2):
Strand	fluorescence intensity [a.u.]
CATCATTTGCCACTCCACATGACAATGTAAAAGCCA	254
AGCTTTGAAAACTCCCATGTGGCGCGCCCGTCTTAA	70.9
GCGGTGTCAAACGGTCTGGTGTGCCATCTAGAAGTT	59.4
CGTCTGCTAATGGCGGACGTGGTCGATGATGAAGAG	55
ATAAGTAAACTCTCACACATGCTAACTTCTGTTGGG	101
